Measurements collected from several papers.
Every numbered part comes from another study and shows a few of its results, in no order. Positions count from the first letter of the parent shown.

Series 1 — target: BATF2, bZIP domain (human); technique: DHFR protein complementation; matrix: yeast; reference: wild-type JUN-FOS pair; reading: higher = stronger binding
Setting: single substitutions, most at no-binding floor
Starting sequence: JUN, bZIP domain (human); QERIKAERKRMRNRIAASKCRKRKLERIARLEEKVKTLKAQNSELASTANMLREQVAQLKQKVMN; partner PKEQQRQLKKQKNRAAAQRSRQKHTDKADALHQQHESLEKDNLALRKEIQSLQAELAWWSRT
For `L52I`, the binding fitness was -0.885 natural log.
For `Q58R`, the binding fitness was -0.407 natural log.
With `Q55Y` the binding fitness was -1.04 natural log.
`A49M` has a binding fitness of -0.648 natural log.
`L31R` has a binding fitness of -1.38 natural log.
`S43Q` gave a binding fitness of -0.123 natural log.
`R53Y` gave a binding fitness of -1.38 natural log.
`E54D` has a binding fitness of -0.497 natural log.
`L45Q` gave a binding fitness of -1.25 natural log.
`L52T` gave a binding fitness of -1.47 natural log.
`T37D` gave a binding fitness of -0.17 natural log.
`R30A` has a binding fitness of 0.0374 natural log.
With `E54C` the binding fitness was -0.814 natural log.
For `L38K`, the binding fitness was -1.21 natural log.
For `K39W`, the binding fitness was -0.922 natural log.
`L38N` has a binding fitness of -1.51 natural log.

Series 2 — technique: RNA Bind-n-Seq; form: RNA; matrix: in vitro; concentration: 365 nM; reference: no-protein control; reading: higher = stronger binding
Target: RNA binding protein fox-1 homolog 2, RRM domain, GST-SBP tag (RBFOX2, Homo sapiens, UniProt O43251-10, residues 100-194)
Setting: natural RNA segment, single round, ends assumed
Target sequence (chain): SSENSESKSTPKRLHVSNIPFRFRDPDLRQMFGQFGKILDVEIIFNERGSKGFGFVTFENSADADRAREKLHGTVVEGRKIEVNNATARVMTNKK
Under “RBNS enrichment (R)”, `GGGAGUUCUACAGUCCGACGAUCUUCUGCCGCCCUUCCUGAGACCUUAGAAACCAGAAGAGCCAUACAGUCAGUGGAAGGCGGGGGGGCCCUGGCCUCUGCACCGGGAUCCCAGUGGGAACCUUCAUGCCUUAUGGAAUUCUCGGGUGCCAA` is recorded as 0.407.
For `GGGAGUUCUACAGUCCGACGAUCGAGAUGCCCUGAGAGGGAGAGGAGGAAGCCAGAGUUGCUGUCAUCUGUGUCCCUGUCUUAGUCAGAACCUCUGUCCUUUCCUCACCAACUAACAUGUGCCAGCCAGGCAGUGGAAUUCUCGGGUGCCAA`, “RBNS enrichment (R)” read 0.782.
`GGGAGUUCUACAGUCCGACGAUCGCCGAGUUUGGGCCACUGCACUCUAGCCUGGCAACAGAGCAAGACUCCGUCUCAAAAAAAGGGCAAUAAAUGCCCUCUCUGAAUGUUUGAACUGCCAAGAAAAGGCAUGGUGGAAUUCUCGGGUGCCAA`: “RBNS enrichment (R)” 1.11.
`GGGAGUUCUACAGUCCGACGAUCCUCACAGCAGGCAGCAUAUGUUGAAAUAAGUUAUUACUGGUACACACCUGCAUUGCCUCACCAGUGUAUUUAUUUGUUAUUAAAUUGAUCUGACUUCUCAGCCUCAUUUGUGGAAUUCUCGGGUGCCAA`: “RBNS enrichment (R)” 1.93.
Under “RBNS enrichment (R)”, `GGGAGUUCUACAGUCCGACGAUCAUUUUGAUACCAGAAGGGAAAGCUUCAUUCUCCUUGUUGUUGGUUGUUUUUUCCUUUGCUCUUUCCCCCUUCCAUCUCUGACUUAAGCAAAAGAAAAAGAUUACCCAAAAUGGAAUUCUCGGGUGCCAA` is recorded as 0.472.
`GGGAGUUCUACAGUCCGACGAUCUGGCCUCGCCGUCUCUUUCCUCCCUCCACACACCCACUUAUUUCCUUAACCUUCUUUCCCAAUGGAGCUUGGGGGACUAUUUAUAGAUUUCAUUUUUCUCACUGAGCCAGUGGAAUUCUCGGGUGCCAA`: “RBNS enrichment (R)” 0.36.
`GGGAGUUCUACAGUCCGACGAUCUCCUCCUCACUUAGCACCUAGGGGUGUCAGGGUCGGGAGUAGGACCUGUCCUGACCUCAGGGUUAUAUAUAGCCCUUCCCCACUCCCUCCUACGAGAGUUCUGGCAUAAAUGGAAUUCUCGGGUGCCAA`: “RBNS enrichment (R)” 0.261.
`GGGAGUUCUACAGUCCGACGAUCGUGGCUGCCUGGACCUCAAUACCCCAAGUCCACCUGCCUAUCCAUCCUGCGAGCUCCUUGGGUCCUGCAAUCUCCAGGGCUGCCCCUGUAGGUUGCUUAAAAGGGACAGUUGGAAUUCUCGGGUGCCAA` — result for “RBNS enrichment (R)”: 0.405.
For `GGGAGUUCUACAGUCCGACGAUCCUAAAGGAUUUUUCUACCUUGAGAUCUCCCGAGAAAUGAAAACUCAGGCAGUUUAGUCCAUAGUAGUACUAUUUUGAUGAUAUUUUCCAUUAACAAAAUGUAAUUUCAGAUGGAAUUCUCGGGUGCCAA`, “RBNS enrichment (R)” read 0.323.
Under “RBNS enrichment (R)”, `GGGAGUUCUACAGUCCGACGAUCAUUGGAAAUUUCACGUCAUAGGAAGUUAGCCUUUAUCUACCAACUUUCAAGAACUUGUUUAAUAAAGCGAAAAACUCAACCAAAUGGUACAAAACCACAGUGUACCAUUAUGGAAUUCUCGGGUGCCAA` is recorded as 0.303.
`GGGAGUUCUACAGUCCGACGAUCAAAUCAAGAAGCUUAAAACUGCACCUGUGGAGUGCCACCCGAGCCAACACAUCAAAUAAUGCAUUGAAUAUUUAUGAAAAAGUAUAUUUAUACUCUCAGAUAGUUUGCUCUGGAAUUCUCGGGUGCCAA` — result for “RBNS enrichment (R)”: 0.874.
`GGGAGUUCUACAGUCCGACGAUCCUGUGCGACUGCUAAACUGCAGGUUUUUGUUGAAGGAACUAAAAGCAACUAGUUCACUCAUAGUCUACAGUUUUAUGUUCUUUUGGCUUAAAGUUAAAAGAAAAUACAGAUGGAAUUCUCGGGUGCCAA` — result for “RBNS enrichment (R)”: 0.401.

Series 3 — technique: protein-binding microarray; form: double-stranded DNA, one strand shown; matrix: in vitro; concentration: 250 nM; setting: 60-bp whole probe; added: salmon DNA 0.4 mg/ml; reference: random background probes; reading: higher = stronger binding; all sequences stand within: GCCTAGCAC … GTCTTGATTCGCTTGACGCTGCTG
Target: Interferon regulatory factor 5, full length, phosphomimetic (IRF5, Homo sapiens, UniProt Q13568-2, residues 1-514, K96S/S451D/S453D/S456D/S462D)
For `GACAACTGATATCAAAGGGAGTGCTAG`, the log fluorescence was 0.483 z-score.
With `TTAAATTTTAATAACACAGAGTGCTAG` the log fluorescence was 0.479 z-score.
`TCAATTCTCTGCTTGGGACTGTGCTAG` gave a log fluorescence of 0.12 z-score.
For `TTAGGACTGGGGAATGGGTTAGTGCTA`, the log fluorescence was -0.403 z-score.
For `GACGGTTTCCTTATCCGGACGTGCTAG`, the log fluorescence was 0.94 z-score.
`TTAGGACTGGACACAGGGTTAGTGCTA` gave a log fluorescence of -0.468 z-score.
The log fluorescence of `TTAGGTCTCGGTATCGGCTAGTGCTAG` is reported as 2.01 z-score.
`GTCGATATCAGTATCGAGACGTGCTAG` gave a log fluorescence of 4.74 z-score.
With `GACGGACTGAGTCTCGAGACGTGCTAG` the log fluorescence was -0.393 z-score.
With `TTAGGACTGGACACTGCGTTAGTGCTA` the log fluorescence was -0.673 z-score.
With `TCACAAGTCTTGTTTTACACTGTGCTA` the log fluorescence was 0.591 z-score.
The log fluorescence of `TCATTTTTAGATATCTTACTGTGCTAG` is reported as 0.886 z-score.
With `TCAAGTTTTCATTTTCTACTGTGCTAG` the log fluorescence was 2.64 z-score.
The log fluorescence of `TCACATGTCTGTGTCACACTGTGCTAG` is reported as -0.0402 z-score.
With `GGCGATTTCAGTTTCGAGACGTGCTAG` the log fluorescence was 7.32 z-score.
For `GACGGTTTCCTACTGCGGACGTGCTAG`, the log fluorescence was 0.329 z-score.
The log fluorescence of `ATATATGTATATATGTGTATGTGCTAG` is reported as 0.605 z-score.
For `TGGCTTTGCCTTTTGCTTTAGTGCTAG`, the log fluorescence was -0.225 z-score.
The log fluorescence of `GACGGACTGGACACTGGGGTCGTGCTA` is reported as -0.584 z-score.
`TTAGGACTGGGTTTCGGATAGTGCTAG` has a log fluorescence of 2.87 z-score.
With `TTAGGTGTCCTTATCCTTTAGTGCTAG` the log fluorescence was -0.186 z-score.
For `GACGTACTGGGGACTGGAGACGTGCTA`, the log fluorescence was -0.419 z-score.
With `TTAGGTTTAGACTTTCGGTTAGTGCTA` the log fluorescence was 9.13 z-score.
The log fluorescence of `TTAGGACTGGGACTGGGATAGTGCTAG` is reported as -0.531 z-score.
`TTAGATATCCGTCTCGATTAGTGCTAG` has a log fluorescence of 0.701 z-score.

Series 4 — technique: RNA Bind-n-Seq; form: RNA; matrix: in vitro; concentration: 1 µM; setting: whole 134-nt RNA, ends assumed; added: 150 mM KCl; reference: input library; reading: higher = stronger binding
Target: Ras GTPase-activating protein-binding protein 1, C-terminal RGG region (G3BP1, Homo sapiens, UniProt Q13283)
Sequence of UniProt Q13283 (whole entry, looked up): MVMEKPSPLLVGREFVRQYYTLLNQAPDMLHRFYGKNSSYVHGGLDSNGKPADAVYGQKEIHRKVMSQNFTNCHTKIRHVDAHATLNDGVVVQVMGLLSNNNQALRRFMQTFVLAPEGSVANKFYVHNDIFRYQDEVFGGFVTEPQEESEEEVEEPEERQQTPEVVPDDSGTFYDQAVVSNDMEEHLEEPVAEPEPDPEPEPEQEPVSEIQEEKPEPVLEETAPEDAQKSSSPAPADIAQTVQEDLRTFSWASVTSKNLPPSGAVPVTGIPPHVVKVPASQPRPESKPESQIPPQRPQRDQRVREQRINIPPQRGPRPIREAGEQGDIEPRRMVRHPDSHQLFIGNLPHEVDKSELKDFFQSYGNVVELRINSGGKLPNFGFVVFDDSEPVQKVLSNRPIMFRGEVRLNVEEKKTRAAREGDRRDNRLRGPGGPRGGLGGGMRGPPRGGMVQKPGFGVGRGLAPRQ
`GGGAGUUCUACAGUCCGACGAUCCACAGACAACACGCACCCACACAGACACAGAGGGAAGGGGUUGGGAUGGGGACAGGGUGCACAGCAGGGCGAGGUAGGACCCCAGCCCCUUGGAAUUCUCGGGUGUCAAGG` has a log2 enrichment of -0.373.
With `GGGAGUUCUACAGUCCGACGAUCUGGCCCUGGUGGCAUGCGGGGAGGGAGAGGUGGCCUCAUGGAUCGUGGUGGUCCCGGUGGAAUGUUCAGAGGUGGCCGUGGUGGAGACAGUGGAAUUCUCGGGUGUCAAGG` the log2 enrichment was 2.39.
With `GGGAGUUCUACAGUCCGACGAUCAGUCCUGUGCUACACAUCGUAUGUACCGAAUCGGGAAAAGGGAAAAGGGGAAAAGGGAAAGUAUUAUGUUACGCCGUUCGGAUCUGCACUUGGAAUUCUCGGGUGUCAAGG` the log2 enrichment was 0.999.
`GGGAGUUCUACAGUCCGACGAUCUCCGCGUGUGAAGUUUUUCUCGGCUGCAUCAUGGGUGCCACAUUCUUUUUGUUGUUUUCAGUGCUGCAAAAGCCCCAUAUCUGGCCAAGUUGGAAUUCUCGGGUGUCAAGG` has a log2 enrichment of -0.973.
For `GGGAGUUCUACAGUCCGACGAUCCCUGUGCUACACAUCGUAUGUACCGAAUCGGGGAAAAAAAGGGGUUUUUGGGGUUUGGGGAAAGUAUUAUGUUACGCCGUUCGGAUCUGCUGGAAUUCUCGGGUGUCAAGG`, the log2 enrichment was 0.524.
For `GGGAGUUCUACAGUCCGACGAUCCACAGACAACAGGCACCCACACAGACACAGAGGGAAGGGGUUGGGAUGGGGACAGGGUGCACAGCAGGGCGGGGUAGGACCCCAGCCCCUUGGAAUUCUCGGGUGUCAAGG`, the log2 enrichment was -0.135.
The log2 enrichment of `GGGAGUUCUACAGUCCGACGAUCACCAUGCAGGUGGGCAUCUUUGGGAAGUGGGGCAAGGGGGGGAUAGGGAGGGGGGUAACACUUUGGGAACAGGUGCUCCCAGGUCGUUUCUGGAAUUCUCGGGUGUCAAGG` is reported as 1.57.
`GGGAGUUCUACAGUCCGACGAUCAGUCCUGUGCUACACAUCGUAUGUACCGAAUCGGGGAAAAAGGGGUGGGGAAAGGGGAAAGUAUUAUGUUACGCCGUUCGGAUCUGCACUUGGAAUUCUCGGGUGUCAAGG` gave a log2 enrichment of 1.69.
With `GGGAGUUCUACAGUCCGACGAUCGUCCUGUGCUACACAUCGUAUGUACCGAAUCGGAAAAAGGGGAAAAAGGGGAAAAAGGAAAGUAUUAUGUUACGCCGUUCGGAUCUGCACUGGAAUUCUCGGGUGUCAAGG` the log2 enrichment was -1.02.
With `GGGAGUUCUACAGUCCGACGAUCUCCUGUGCUACACAUCGUAUGUACCGAAUCGGGGAAAGGGGUUUUUUUGGGGAAAGGGGAAAGUAUUAUGUUACGCCGUUCGGAUCUGCAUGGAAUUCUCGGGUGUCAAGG` the log2 enrichment was 2.13.

Excerpt of the above (series 3):
For `TTAGGACTGGGGAATGGGTTAGTGCTA`, the log fluorescence was -0.403 z-score.
For `GACGGTTTCCTTATCCGGACGTGCTAG`, the log fluorescence was 0.94 z-score.
`TTAGGACTGGACACAGGGTTAGTGCTA` gave a log fluorescence of -0.468 z-score.
The log fluorescence of `TTAGGTCTCGGTATCGGCTAGTGCTAG` is reported as 2.01 z-score.
`GTCGATATCAGTATCGAGACGTGCTAG` gave a log fluorescence of 4.74 z-score.
